Measurements from different studies.
Parts stem from different laboratories: compare values within a part only.

Block 1
Target: Prothrombin, mature alpha-thrombin (F2, Homo sapiens, UniProt P00734)
Method: aptamer microarray, sandwich
Molecule type: DNA with 2'F-ANA
Matrix: in vitro
Tested at: 200 nM
Notes: whole 15-mer aptamer, many near background
Together with: Cy3 exosite-II aptamer, 400 nM
Direction: higher = stronger binding
Endpoint: mean fluorescence intensity
Oligonucleotide: GGTTGGTGTGGTTGG
Modification = 2'F-ANA at 2 3 5 9 11 12 14 15; result = 53.6 a.u.
Modification = 2'F-ANA at 2 11 15; result = 380 a.u.
Modification = 2'F-ANA at 2 6 8 9 10 11 15; result = 107 a.u.
Modification = 2'F-ANA at 4 11 13 15; result = 199 a.u.
Modification = 2'F-ANA at 1 2 8 9 10 11 12; result = 86.5 a.u.
Modification = 2'F-ANA at 3 5 7 9 10 12 13; result = 61.3 a.u.

Block 2
Target: RNA binding protein fox-1 homolog 2, RRM domain, GST-SBP tag (RBFOX2, Homo sapiens, UniProt O43251-10, residues 100-194)
Method: RNA Bind-n-Seq
Molecule type: RNA
Matrix: in vitro
Tested at: 365 nM
Notes: natural RNA segment, single round, ends assumed
Baseline: no-protein control
Direction: higher = stronger binding
Endpoint: RBNS enrichment (R)
Oligonucleotide = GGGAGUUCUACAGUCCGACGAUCACCAGGAGACUCGGGCUUCGUUUCUUCAUGGCAAGUCUUCAGAGUUAAUUUUCUUUAGAUGUGUAAAACUGUUCAUUGUAGUGUAAAUGUCAGGGUCUGUUCUAGUCUAUUGGAAUUCUCGGGUGCCAA; result = 0.387
Oligonucleotide = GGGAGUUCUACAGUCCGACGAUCCCAGAGUAAACAUCCGAUGCUCAGAGUUAGCAUAAUUUGGAGCUAUUCAGGAAUUGCAGAGAAAUGCAUUUUCACAGAAAUCAAGAUGUUAUUUUUGUAUACUAUAUCACUGGAAUUCUCGGGUGCCAA; result = 0.448
Oligonucleotide = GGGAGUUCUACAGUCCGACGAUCACCGAUGGAAACAGAUUGAUGCAGAUGGAAGGAGGAAGGGAGACUGGGCCCACUGAUUUCCAGCCCCACCAUGUGUGCUGUUUUCAGAUGUGAUUGAGGGGUGUUCUGCCUGGAAUUCUCGGGUGCCAA; result = 0.419
Oligonucleotide = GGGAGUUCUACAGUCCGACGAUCCACCCUCCCAUUCCACAUUCCCCAAUCUAGAGCCUUGGCCACUCUCUCCUGAAGGACCUGGGUCCCUUCCCCCGGAGCCUGUGCCUUGGGGCAGGGGAACCCCAAAGUAAUGGAAUUCUCGGGUGCCAA; result = 0.433
Oligonucleotide = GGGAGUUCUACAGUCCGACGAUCUGUAUGCUUCCAGGUGGAGGAGAAAGGGGAAUCUCCCAAAAUUUAAAAACAAAUUGGAAGAAUAACCAGGACAGCCAAGUGAAGCAGCCACAGGGACCCAAGCAGUCGAGUGGAAUUCUCGGGUGCCAA; result = 0.704

Block 3
Target: Fragile X messenger ribonucleoprotein 1, C-terminal low-complexity region (Fmr1, Mus musculus, UniProt P35922)
Method: RNA Bind-n-Seq
Molecule type: RNA
Matrix: in vitro
Tested at: 200 nM
Notes: whole 134-nt RNA, ends assumed
Together with: 150 mM LiCl
Baseline: input library
Direction: higher = stronger binding
Endpoint: log2 enrichment
Library: 7-deaza-guanosine replaces G
Oligonucleotide = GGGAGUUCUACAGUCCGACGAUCCUCAAGUCCUGUGCUACACAUCGUAUGUACCGAAUCGGUUUUUGGAAAGGAGGAAAGUAUUAUGUUACGCCGUUCGGAUCUGCACUUCCAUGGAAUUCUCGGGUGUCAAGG; result = -1.02
Oligonucleotide = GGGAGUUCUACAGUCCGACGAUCAGUCCUGUGCUACACAUCGUAUGUACCGAAUCGGGAAAAAAAGGGAAAGGGUUUGGGAAAGUAUUAUGUUACGCCGUUCGGAUCUGCACUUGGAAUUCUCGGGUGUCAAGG; result = -3.08
Oligonucleotide = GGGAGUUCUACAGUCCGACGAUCUCCUGUGCUACACAUCGUAUGUACCGAAUCGGGAAAAAGGGUUUUUGGGUUUUUUUGGGAAAGUAUUAUGUUACGCCGUUCGGAUCUGCAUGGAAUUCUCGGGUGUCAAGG; result = -2.17
Oligonucleotide = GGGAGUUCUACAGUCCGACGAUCCACAGACGACACGCACCCACACAGACACAGAGGGAAGGGGUUGGGAUGGGGACAGGGUGCACAGCAGGGCGGGGUAGGACCCCAGCCCCUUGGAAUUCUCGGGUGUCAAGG; result = 0.492
Oligonucleotide = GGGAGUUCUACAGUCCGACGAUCGUCCUGUGCUACACAUCGUAUGUACCGAAUCGGGGAAAAAAAGGGGAAAGGGGUGGGGAAAGUAUUAUGUUACGCCGUUCGGAUCUGCACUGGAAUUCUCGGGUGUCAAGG; result = -0.862

Mixed results
Molecule = PhoQ, residues 284 288 289 292 302 303 SNSSNI; target = PhoP, residues 12 14 15 18 19 YHFSH (Escherichia coli, UniProt P23836); assay = Sort-seq, refers to: YFP reporter; system = E. coli; conditions = PhoQ-PhoP variant library, together with: 10 µM Mg2+; scale = baseline: high Mg2+ state, higher = stronger signaling; endpoint = fold induction; result = 17.3

Some of these lines once more (mixed results):
Molecule = PhoQ, residues 284 288 289 292 302 303 SNSSNI; target = PhoP, residues 12 14 15 18 19 YHFSH (Escherichia coli, UniProt P23836); assay = Sort-seq, refers to: YFP reporter; system = E. coli; conditions = PhoQ-PhoP variant library, together with: 10 µM Mg2+; scale = baseline: high Mg2+ state, higher = stronger signaling; endpoint = fold induction; result = 17.3
